Measurements pooled from the literature.
Lines come from different studies, so protocols differ. Numbers after ± are the reported error.
inhA: Enoyl-[acyl-carrier-protein] reductase [NADH] (inhA, Mycobacterium tuberculosis, UniProt P9WGR1)

Protein sequences, listed by entry. Tags and fused reporters are not part of them.
UniProt P9WGR1, whole entry: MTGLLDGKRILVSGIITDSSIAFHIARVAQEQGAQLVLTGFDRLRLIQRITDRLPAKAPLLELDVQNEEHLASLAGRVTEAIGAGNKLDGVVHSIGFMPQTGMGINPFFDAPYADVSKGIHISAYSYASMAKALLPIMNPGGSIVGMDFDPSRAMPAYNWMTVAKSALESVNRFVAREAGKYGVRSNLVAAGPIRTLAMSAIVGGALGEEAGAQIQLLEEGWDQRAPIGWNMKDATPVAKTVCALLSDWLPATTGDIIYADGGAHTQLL
UniProt Q5M848, whole entry: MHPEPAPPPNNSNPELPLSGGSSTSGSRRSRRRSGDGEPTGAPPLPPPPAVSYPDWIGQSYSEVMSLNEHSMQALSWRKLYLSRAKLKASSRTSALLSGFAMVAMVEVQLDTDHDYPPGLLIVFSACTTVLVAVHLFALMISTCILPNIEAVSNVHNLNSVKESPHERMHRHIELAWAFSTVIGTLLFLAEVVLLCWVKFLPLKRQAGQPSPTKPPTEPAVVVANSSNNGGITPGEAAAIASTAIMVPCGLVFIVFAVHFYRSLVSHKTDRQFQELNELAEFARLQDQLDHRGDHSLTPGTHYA
UniProt P35372, whole entry: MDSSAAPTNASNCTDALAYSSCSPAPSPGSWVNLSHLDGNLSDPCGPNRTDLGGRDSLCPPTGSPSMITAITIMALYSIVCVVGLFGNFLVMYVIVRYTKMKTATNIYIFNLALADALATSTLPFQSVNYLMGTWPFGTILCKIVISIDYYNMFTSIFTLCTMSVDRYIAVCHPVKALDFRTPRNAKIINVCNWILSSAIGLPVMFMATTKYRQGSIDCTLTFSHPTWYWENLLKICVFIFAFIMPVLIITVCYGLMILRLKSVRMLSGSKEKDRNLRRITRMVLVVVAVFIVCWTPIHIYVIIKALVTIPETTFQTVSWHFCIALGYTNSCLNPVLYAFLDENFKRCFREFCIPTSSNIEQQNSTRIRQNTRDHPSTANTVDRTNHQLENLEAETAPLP
UniProt P22303, whole entry, looked up: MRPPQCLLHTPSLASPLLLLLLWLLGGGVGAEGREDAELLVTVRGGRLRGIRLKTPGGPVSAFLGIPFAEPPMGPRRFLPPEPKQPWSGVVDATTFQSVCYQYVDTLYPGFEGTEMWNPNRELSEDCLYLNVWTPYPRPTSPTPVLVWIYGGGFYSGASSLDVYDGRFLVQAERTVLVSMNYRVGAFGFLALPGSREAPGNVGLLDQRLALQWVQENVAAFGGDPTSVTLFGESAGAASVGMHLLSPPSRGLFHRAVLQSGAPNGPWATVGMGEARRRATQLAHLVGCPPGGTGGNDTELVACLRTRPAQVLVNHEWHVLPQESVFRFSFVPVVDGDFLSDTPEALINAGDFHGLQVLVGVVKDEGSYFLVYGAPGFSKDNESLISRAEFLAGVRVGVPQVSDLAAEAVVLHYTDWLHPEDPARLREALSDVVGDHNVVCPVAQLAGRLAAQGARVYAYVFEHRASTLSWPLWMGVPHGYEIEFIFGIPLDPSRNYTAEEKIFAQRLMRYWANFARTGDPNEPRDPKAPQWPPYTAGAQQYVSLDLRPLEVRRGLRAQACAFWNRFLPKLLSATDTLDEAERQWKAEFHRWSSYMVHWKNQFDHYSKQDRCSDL
UniProt P08173, whole entry: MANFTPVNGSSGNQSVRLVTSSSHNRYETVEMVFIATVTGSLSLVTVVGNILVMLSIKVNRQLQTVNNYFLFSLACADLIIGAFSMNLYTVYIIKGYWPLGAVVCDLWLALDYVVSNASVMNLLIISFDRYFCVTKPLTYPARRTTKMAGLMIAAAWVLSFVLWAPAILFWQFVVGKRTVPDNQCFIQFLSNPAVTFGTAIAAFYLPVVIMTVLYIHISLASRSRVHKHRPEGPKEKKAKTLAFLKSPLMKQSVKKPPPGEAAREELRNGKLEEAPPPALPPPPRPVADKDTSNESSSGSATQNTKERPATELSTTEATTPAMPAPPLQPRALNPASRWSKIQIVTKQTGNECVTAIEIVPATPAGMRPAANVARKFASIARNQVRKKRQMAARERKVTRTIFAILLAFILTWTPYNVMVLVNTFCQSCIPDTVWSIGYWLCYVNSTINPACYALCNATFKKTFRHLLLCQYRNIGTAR
UniProt O42275, whole entry, looked up: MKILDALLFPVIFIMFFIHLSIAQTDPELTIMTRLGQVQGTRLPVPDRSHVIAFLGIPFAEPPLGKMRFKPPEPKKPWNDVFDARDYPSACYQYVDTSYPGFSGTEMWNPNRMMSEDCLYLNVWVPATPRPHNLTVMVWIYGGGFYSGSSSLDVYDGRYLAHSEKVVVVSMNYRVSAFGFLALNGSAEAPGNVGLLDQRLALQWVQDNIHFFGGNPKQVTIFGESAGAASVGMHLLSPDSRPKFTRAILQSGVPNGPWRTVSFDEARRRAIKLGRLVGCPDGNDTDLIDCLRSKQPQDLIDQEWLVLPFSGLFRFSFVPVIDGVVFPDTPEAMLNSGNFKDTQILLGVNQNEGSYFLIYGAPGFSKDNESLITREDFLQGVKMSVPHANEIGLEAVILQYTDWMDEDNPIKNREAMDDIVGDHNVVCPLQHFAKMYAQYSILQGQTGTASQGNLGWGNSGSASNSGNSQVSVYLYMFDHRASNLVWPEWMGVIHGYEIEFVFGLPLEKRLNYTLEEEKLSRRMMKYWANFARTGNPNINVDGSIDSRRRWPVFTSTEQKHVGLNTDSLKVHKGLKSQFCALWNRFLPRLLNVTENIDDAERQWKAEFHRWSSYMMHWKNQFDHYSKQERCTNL
UniProt P06730, whole entry: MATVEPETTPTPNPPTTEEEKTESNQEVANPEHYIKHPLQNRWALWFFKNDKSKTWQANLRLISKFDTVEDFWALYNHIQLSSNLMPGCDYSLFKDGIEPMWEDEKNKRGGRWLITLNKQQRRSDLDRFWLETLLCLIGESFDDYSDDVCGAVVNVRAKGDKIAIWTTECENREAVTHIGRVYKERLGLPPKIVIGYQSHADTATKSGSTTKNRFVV
UniProt O33336, whole entry: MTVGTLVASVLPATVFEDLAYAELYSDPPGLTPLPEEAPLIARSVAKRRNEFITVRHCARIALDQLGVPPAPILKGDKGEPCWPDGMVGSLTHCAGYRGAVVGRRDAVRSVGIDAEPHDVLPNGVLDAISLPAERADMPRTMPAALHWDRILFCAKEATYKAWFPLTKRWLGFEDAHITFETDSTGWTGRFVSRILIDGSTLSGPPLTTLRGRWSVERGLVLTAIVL

With `O=C(Nc1c(F)cncc1F)c1nn(Cc2ccc(Cl)cc2Cl)c2ccccc12` the inhibition was 46% (Calcium release-activated calcium channel protein 1, with STIM1 (Rattus norvegicus, UniProt Q5M848); Ca2+ influx, inhibitor; RBL-2H3; 30 µM, with: thapsigargin).
With `CSCC[C@H](NC(=O)[C@H](Cc1ccccc1)NC(=O)CNC(=O)CNC(=O)[C@@H](N)Cc1ccc(O)cc1)C(=O)O` the Km was 106 µM (aminopeptidase III peak, rat; substrate; with: NAP-2).
With `Oc1cccc2c1OC1CCCC3CN(CC4CC4)CCC231` (single isomer, unassigned) the Ke was 0.22 nM (OPRM1 (Homo sapiens, UniProt P35372); antagonist; with: DAMGO).
`N#Cc1ccccc1Oc1ccc(Cn2cc(C3CC3)nn2)cc1O`: “isomerization rate k5” 1.4 min⁻¹ (inhA; 20 °C, EI to EI*).
For `c1ccc2c[n+](CCCCCCCC[n+]3ccc4ccccc4c3)ccc2c1`, the selectivity ratio was 80 (ACHE (Homo sapiens, UniProt P22303); relative to: BChE IC50 over AChE IC50).
The koff ratio of `Oc1cc(Cn2cc(C3CC3)nn2)ccc1Oc1ccccc1Cl` is reported as 3 fold (inhA; relative to: fitted k6 over koff).
For `COc1ccc(CN[C@@H]2CO[C@H](C(c3ccccc3)c3ccccc3)C[C@H]2O)cc1`, the inhibition was -3.4% (CHRM4 (Homo sapiens, UniProt P08173); radioligand binding; 10 µM, with: [3H]QNB).
`O=C(C1CCN(Cc2cccc3ccccc23)CC1)N1CCc2ccccc2C1` has a Vmax of 0.088 absorbance units/min (ache (Electrophorus electricus, UniProt O42275); enzyme activity, inhibitor, Ellman; 175 µM, with: acetylthiocholine iodide).
For `N#Cc1ccccc1Oc1ccc(Cn2cc(C3CCCC3)nn2)cc1O`, “reverse isomerization rate k6” read 0.0094 ± 0.0018 min⁻¹ (inhA; 20 °C, EI* to EI).
`Cc1ccc(-c2csc(NP(=O)(O)OCC3OC(n4c[n+](Cc5ccccc5)c5c(=O)[nH]c(NC(=O)c6ccccc6)nc54)C4OC(C)(C)OC34)n2)cc1` (stereo not drawn) gave an increase of 15% (EIF4E (Homo sapiens, UniProt P06730); item: non-phosphorylated EIF4E protein; MCF7; relative to: untreated).
For `COC(=O)[C@@H]1C=C(OC(=O)c2ccc(O)c(F)c2)C(=O)[C@H]2[C@@]1(C)CC[C@H]1C(=O)O[C@H](c3ccoc3)C[C@]21C`, the bias factor was 1.4 (Mu-type opioid receptor, with beta-arrestin-2 (OPRM1, Homo sapiens, UniProt P35372); β-arrestin-2 vs cAMP, agonist; relative to: DAMGO, higher = β-arrestin-2 bias).
With `O=c1c2ccccc2[nH]c(=S)n1Cc1cccnc1` the inhibition was 98.5% (4'-phosphopantetheinyl transferase PptT (Mycobacterium tuberculosis, UniProt O33336); enzyme activity, fluorescence polarization; 10 µM).
